# Measured values gathered from unrelated publications.
# Each line is one published result; not all experiments were run side by side. Numbers after ± are the reported error.
SMILES,test,system,setting,scale,Cmax
CC[C@@]1(O)C(=O)OCc2c1cc1n(c2=O)Cc2cc3c(CN(C)C)c(O)ccc3nc2-1,,"human patients, plasma","oral, 8 mg weekly, day 1, geometric mean, alone",,24.8 ng/mL
Oc1ccc2cc3ccc4cccc5ccc(c2c1)c3c45,UPLC-AMS,"human, plasma","oral, 50 ng of [14C]-BaP",,1.9 ± 2.28 fg BaP equivalents/mL
NS(=O)(=O)Nc1ncnc(OCCOc2ncc(Br)cn2)c1-c1ccc(Br)cc1,,"healthy adult humans, both sexes, plasma","oral, 10/40 mg fixed-dose combination, single dose, fed, high-fat breakfast",,176 ng/mL
COC(=O)N[C@H](C(=O)N1CCC[C@H]1C(=O)Nc1ccc([C@@H]2CC[C@@H](c3ccc(NC(=O)[C@@H]4CCCN4C(=O)[C@@H](NC(=O)OC)C(C)C)cc3)N2c2ccc(C(C)(C)C)cc2)cc1)C(C)C,,"healthy human volunteers, plasma","oral, dose not given, rosuvastatin interaction study",baseline: given without rosuvastatin,123 ng/mL
Cc1ncc(OC[C@@]2(c3cccc(F)c3)C[C@H]2C(=O)Nc2ccc(F)cn2)c(C)n1,,"human, plasma","10 mg, alone, mean",,56.2 ng/mL
CN[C@@H]1C[C@H]2O[C@@](C)([C@@H]1OC)n1c3ccccc3c3c4c(c5c6ccccc6n2c5c31)C(=O)N[C@@H]4O,,human patients,"intravenous infusion, 34 mg/m^2/24 h, 72 h infusion, cycle 1, mean, together with: prednisone",,17200 ng/mL
CC(C)c1nc(CN(C)C(=O)N[C@H](C(=O)N[C@@H](Cc2ccccc2)C[C@H](O)[C@H](Cc2ccccc2)NC(=O)OCc2cncs2)C(C)C)cs1,,"healthy human volunteers, plasma","oral, dose not given, alone, pravastatin interaction study",,706 ng/mL
CC(C)C[C@H](NC(=O)CNC(=O)c1cc(Cl)ccc1Cl)B(O)O,,"human, plasma","oral, 4 mg, day 1, alone",,55.8 ng/mL
Cc1cnc(C(=O)N[C@H]2CCCCC/C=C\[C@@H]3C[C@@]3(C(=O)NS(=O)(=O)C3CC3)NC(=O)[C@@H]3C[C@@H](Oc4nc5ccccc5c5ccccc45)CN3C2=O)cn1,,"healthy human volunteers, plasma","oral, dose not given, together with: rosuvastatin plus 2D regimen",,413 ng/mL
O[C@H]1CCCN[C@@H]1CCCn1cnc2c(Cl)c(Cl)ccc21,,"human, plasma","oral, 100 mg single dose, solution, geometric mean",,72.3 ng/mL

# Some of these lines once more:
SMILES,test,system,setting,scale,Cmax
Oc1ccc2cc3ccc4cccc5ccc(c2c1)c3c45,UPLC-AMS,"human, plasma","oral, 50 ng of [14C]-BaP",,1.9 ± 2.28 fg BaP equivalents/mL
